Measurements from different studies.
Every numbered part comes from another study and shows a few of its results, in no order. Positions count from the first letter of the parent shown.

Sample 1
Target: Histone acetyltransferase KAT6A, winged helix 2, GST fusion (KAT6A, Homo sapiens, UniProt Q92794, residues 85-181)
Method: protein binding microarray
Molecule type: double-stranded DNA, one strand shown
Medium: in vitro
Tested at: not given
Setting: 8-mer, flanks averaged, mean of 2 arrays, mostly near background
Baseline: not given
Reading: higher = stronger binding
Endpoint: E-score
Residues (chain): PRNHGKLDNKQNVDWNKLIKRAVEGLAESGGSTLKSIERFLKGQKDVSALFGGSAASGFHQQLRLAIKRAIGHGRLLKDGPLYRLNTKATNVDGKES
ACGCTGGC: 0.0495
ACCATGAG: -0.0947
AAAAGAGG: -0.103
ACGACGCC: -0.0629
ATCGCTTA: -0.145
ACTGACCT: -0.0588
CAGCCGGC: 0.201
ACCACAAA: 0.0785
ACAGAAAT: 0.0256
AGTACCCG: 0.0615
GGCGCCCA: 0.248
CAAAGCGG: 0.209
CGGATATC: 0.099
AATAGCCT: -0.248
ACATTAGC: -0.00456
ATCATCTC: 0.0878

Sample 2
Target: Ras GTPase-activating protein-binding protein 1, full length (G3BP1, Homo sapiens, UniProt Q13283)
UniProt Q13283, sequence (whole entry, looked up): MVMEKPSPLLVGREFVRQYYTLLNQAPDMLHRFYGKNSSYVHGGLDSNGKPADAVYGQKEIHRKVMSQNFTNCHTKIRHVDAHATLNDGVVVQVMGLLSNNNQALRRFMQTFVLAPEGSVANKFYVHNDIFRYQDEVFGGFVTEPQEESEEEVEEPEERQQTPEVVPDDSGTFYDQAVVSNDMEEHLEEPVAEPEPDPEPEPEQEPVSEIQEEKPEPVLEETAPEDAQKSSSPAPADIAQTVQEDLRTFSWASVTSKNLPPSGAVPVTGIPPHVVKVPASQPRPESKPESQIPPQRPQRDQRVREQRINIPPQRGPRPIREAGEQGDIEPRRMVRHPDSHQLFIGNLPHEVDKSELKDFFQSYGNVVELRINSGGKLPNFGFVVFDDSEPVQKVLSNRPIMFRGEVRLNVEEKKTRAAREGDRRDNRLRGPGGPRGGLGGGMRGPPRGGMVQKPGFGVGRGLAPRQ
Method: RNA Bind-n-Seq
Molecule type: RNA
Medium: in vitro
Tested at: 200 nM
Setting: whole 134-nt RNA, ends assumed
With: 150 mM KCl
Baseline: input library
Reading: higher = stronger binding
Endpoint: log2 enrichment
All sequences stand within: GGGAGUUCUACAGUCCGACGAUC … UGGAAUUCUCGGGUGUCAAGG
UAACUUUAGAGGAGGAUCUGAUGGAUAUGGCAGUGGACGUGGAUUUGGGGAUGGCUAUAAUGGAUAUGGAGGAGGACCUGGAGGUGGCAA: 0.357
CUCAAGUCCUGUGCUACACAUCGUAUGUACCGAAUCGGAGGUUUUUGGAAAGGAAAGUAUUAUGUUACGCCGUUCGGAUCUGCACUUCCA: -0.619
CACAGACAACACGCACCCACACAGACACAGAGGGAAGGGGUUGGGAUGGGGACAGGGUGCACUGCAGGGCGGGGUAGGACCCCAGCCCCU: 1.68
AGUCCUGUGCUACACAUCGUAUGUACCGAAUCGGGGUUUGGGGUUUGGGGAAAGGGGAAAGUAUUAUGUUACGCCGUUCGGAUCUGCACU: 0.782
UCAAGUCCUGUGCUACACAUCGUAUGUACCGAAUCGGUUUUUGGUUUUUGGUGGAAAGUAUUAUGUUACGCCGUUCGGAUCUGCACUUCC: -0.953
GCAAAAAGUAAAAACAAAUGGAAAUGCUUCGGAUAGUGGCAGGGGUGGGGGUUGCUAAGGAAAGGGUGGGAUGGGAGUGGGUAAAGAGUU: 1.17
GUCCUGUGCUACACAUCGUAUGUACCGAAUCGGGGAGGGGUUUUUUUGGGGAAAGGGGAAAGUAUUAUGUUACGCCGUUCGGAUCUGCAC: 0.652
CUCAAGUCCUGUGCUACACAUCGUAUGUACCGAAUCGGGAAGGGAAGGGGAAGGAAAGUAUUAUGUUACGCCGUUCGGAUCUGCACUUCC: 0.0201
UUUUCUUCUGGGGCAUUUAUCCGUGCUGAUCUUGGUGAAUGGGGCAUGAGUCUAACGAUCAGAGCCCCUAGUGUAGAUUACAGAAACACU: -0.222

Sample 3
Target: RING finger protein unkempt homolog, zinc fingers 1-6, GST-SBP tag (UNK, Homo sapiens, UniProt Q9C0B0, residues 30-357)
Method: RNA Bind-n-Seq
Molecule type: RNA
Medium: in vitro
Tested at: not given
Setting: RNA with constant flanks, human and mouse sites, ends assumed
Baseline: input RNA pool
Reading: higher = stronger binding
Endpoint: bound/input enrichment
All sequences stand within: GGGAGUUCUACAGUCCGACGAUC … CAACAGAGGAUUGAGCAUCA
Residues (chain): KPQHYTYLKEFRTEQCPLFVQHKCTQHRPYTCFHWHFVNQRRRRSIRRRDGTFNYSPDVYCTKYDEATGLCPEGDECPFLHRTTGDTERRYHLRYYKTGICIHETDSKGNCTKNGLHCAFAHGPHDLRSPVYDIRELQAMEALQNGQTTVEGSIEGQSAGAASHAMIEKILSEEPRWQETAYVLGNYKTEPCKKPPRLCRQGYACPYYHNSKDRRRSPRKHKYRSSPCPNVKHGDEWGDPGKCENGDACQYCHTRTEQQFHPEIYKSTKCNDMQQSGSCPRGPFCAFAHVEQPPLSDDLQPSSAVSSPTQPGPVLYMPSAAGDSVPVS
CAUGGAAAUAUUAUCUACAUCCACAUAAGAGAUAAAACCUGGGAUGUACAUGAAUAUUUGAAUAGUCUUUUUGAAGAAUUAAAAUCUUGGAGAGAUGUUUAUUGGCGUUUGUGGGGCACA: 0.628 ratio
CAGAAAGCUUGACCAAGUUACAUAUUCUAGAGAAUGUCCCGAGUGCCAAGCACGUUUAUACAUAGGGCGUGUAUUCCAGUCUUUUCUGUCAUUCUGUGUGUGUGUGUGUGUACGUAUGUG: 0.262 ratio
GAAAGUGGAAAGCCUUUCCAGUGUCCAAUAUGUGGUUUGGUUAUUAAAAGGAAGAGUUACUGGAAGCGGCACAUGGUGAUUCACACAGGUUUAAAAAGUCAUCAGUGUCCGCUCUGUCCA: 0.152 ratio
UUUCCGUCUUUUGGAAGUGGAUUUUCUUCUUUUGAUACAGGAUUUACUUCAUUUGGGUCACUAGGUCACGGGGGCCUCACUUCAUUCUCUUCCACGUCAUUUGGUGGUAGUGGCAUGGGC: 0.443 ratio
GCAUCUUCUAAUACUGACAUGACUUAUGGAGGGCUGGCAUCACCAAAGCUAGAUGUUUCAUAUGAACCAAUGAUAGUGAAGGAAGCUCGAUAUAUUGCCAUAACAAUGAUGAAGGUUUAU: 0.276 ratio
AUGCUGAUCCCCGUGAGCAUGUCUGAACUGGAAAAGGUGGAUGGGCUGCUCACCUGCUGCUCAGUUUUAAUUAACAAGAAAGUAGACUCCUGAGCUGCAGAGUCCCCCCCGGUUGCCGGC: 0.0872 ratio
GAUAGAAGUAUAUGGCCCUUGAUAAGAAUCUAUCGGGGUGGCUUUCUUCUGAUUGAAUUCCUUUUUCUACUGGGCAUCAACACGUAUGGUUGGAGACAGGCUGGAGUAAACCAUGUACUC: 0.276 ratio
CCCGUGUAAACAUUCUUUUUCCAAGGGGGAAAAUGGUGUUAUUUACAUGAAUCGUGAUCAAAUAGCCUCUAAAAACAGUUUUCUAAGCAGGAGGCUCAGUGGAACUCCGAGCUCCGCUCC: 0.196 ratio

Sample 4
Target: CCNF, cyclin fold, Cln2 fusion (human)
Method: yeast growth competition, sequencing
Medium: yeast
Setting: strong parent motif
Baseline: not given
Reading: higher = stronger binding
Endpoint: normalised enrichment score
Starting sequence: GMNC docking peptide (human); KNAKRNLSSEFAN
KNAKRNCSSEFAN [L7C]: -0.0511
KNAKRNESSEFAN [L7E]: 0.535
KNAKRNLSSESAN [F11S]: 0.293
KNAKRNLSSEDAN [F11D]: 0.355
KNQKRNLSSEFAN [A3Q]: 0.307
KNAKRNLFSEFAN [S8F]: 3.76
KNAKRNLSSEFEN [A12E]: 1.11
KNTKRNLSSEFAN [A3T]: 0.838
KNAKRFLSSEFAN [N6F]: 0.61
KWAKRNLSSEFAN [N2W]: 0.545
KNAKRNASSEFAN [L7A]: 0.678
KNAKRNSSSEFAN [L7S]: 0.0348
KNAQRNLSSEFAN [K4Q]: 0.816
KNAKRNLSHEFAN [S9H]: 1.08
KNAKRNLSSEPAN [F11P]: -0.155
KNAKRNLSSPFAN [E10P]: 0.161
KNAKRNFSSEFAN [L7F]: 0.596

Repeated from above (sample 1):
ACAGAAAT: 0.0256
AGTACCCG: 0.0615
GGCGCCCA: 0.248
CAAAGCGG: 0.209
CGGATATC: 0.099
